Assay results from different studies.
Parts stem from different laboratories: compare values within a part only. Changes are numbered by the printed parent chain.

Block 1
Target: CCNB1, cyclin fold, Cln2 fusion (human)
Method: yeast growth competition, sequencing
Sample: yeast
Notes: weak parent motif
Relative to: not given
Reading: higher = stronger binding
Measurement: normalised enrichment score
Starting sequence: CDC25A docking peptide (human); PPHRRRLLFACSP
F9Q: -0.103
H3F: 1.11
P1C: 0.192
P1R: 0.777
L7Y: 0.515
P13K: 0.369
R4H: -0.134
R6Y: 0.114
R6M: 1.41
P2H: 0.851
A10H: 0.815
S12T: 0.572
L8K: 0.831
L8M: 0.41
S12M: 0.649
L8P: -0.219
P1S: 0.19
P13W: -0.00645
F9L: 0.573
P2W: 0.583
A10L: 0.136
P13Y: 0.716
S12V: 1.05
L8Y: 1.04
P2E: 1.04

Block 2
Target: Histone acetyltransferase KAT6A, both winged helices, GST fusion (KAT6A, Homo sapiens, UniProt Q92794, residues 1-181)
Method: protein binding microarray
Molecule type: double-stranded DNA, one strand shown
Sample: in vitro
Concentration: not given
Notes: 8-mer, flanks averaged, mean of 2 arrays, mostly near background
Relative to: not given
Reading: higher = stronger binding
Measurement: E-score
Construct (chain): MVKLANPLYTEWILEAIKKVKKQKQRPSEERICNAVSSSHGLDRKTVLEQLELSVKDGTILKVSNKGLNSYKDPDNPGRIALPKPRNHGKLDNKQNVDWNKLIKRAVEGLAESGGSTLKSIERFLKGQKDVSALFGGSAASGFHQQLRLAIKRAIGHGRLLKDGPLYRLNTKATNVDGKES
CAGCCACA: -0.115
CGCTAGCC: 0.0943
CCCTTTAC: -0.04
GCACTACC: 0.0495
CTAATCCC: 0.0736
CGATCAAG: 0.0544
CCAGGGTA: -0.0788
GCTCACCC: -0.0451
AATGATCC: -0.0632
GATTATGA: -0.127
CACCTTAC: -0.0631
AGTACTAT: -0.0368
AAAGGGAG: -0.164
AGGCCTGA: -0.243
AGACCACA: -0.136
AACATCTG: -0.0488
TGGAGTAA: -0.236
AAGGGACT: -0.218

Block 3
Target: Interferon regulatory factor 7, full length, phosphomimetic (IRF7, Homo sapiens, UniProt Q92985, residues 1-503, S101K/S471D/S472D/S475D/S476D/S477D/S483D/S484D/S487D)
Method: protein-binding microarray
Molecule type: double-stranded DNA, one strand shown
Sample: in vitro
Concentration: 250 nM
Notes: 60-bp whole probe
Together with: salmon DNA 0.4 mg/ml
Relative to: random background probes
Reading: higher = stronger binding
Measurement: log fluorescence
All sequences stand within: GCCTAGCAC … GTCTTGATTCGCTTGACGCTGCTG
Residues (chain): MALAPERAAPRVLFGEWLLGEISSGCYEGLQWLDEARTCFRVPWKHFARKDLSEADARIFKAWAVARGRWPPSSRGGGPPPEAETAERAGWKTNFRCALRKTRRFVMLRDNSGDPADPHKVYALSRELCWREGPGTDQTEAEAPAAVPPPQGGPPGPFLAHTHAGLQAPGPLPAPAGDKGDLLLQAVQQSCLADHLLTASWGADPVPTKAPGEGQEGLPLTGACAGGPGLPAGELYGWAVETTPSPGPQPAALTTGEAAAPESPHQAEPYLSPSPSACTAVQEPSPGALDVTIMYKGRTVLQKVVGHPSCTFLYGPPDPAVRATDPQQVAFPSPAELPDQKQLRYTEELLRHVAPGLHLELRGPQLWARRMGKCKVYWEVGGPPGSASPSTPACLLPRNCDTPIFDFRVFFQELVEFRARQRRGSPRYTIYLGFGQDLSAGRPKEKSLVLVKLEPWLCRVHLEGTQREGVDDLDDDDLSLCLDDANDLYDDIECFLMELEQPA
GACGGTTTCGGTATCGGGCCGTGCTAG: 9.64 z-score
GACGATTTCGGGACTGGAGATGTGCTA: 0.225 z-score
TTAGATATCAGTATCGATTTGTGCTAG: 3.28 z-score
TCATTTCTCCTTTCCAAACTGTGCTAG: 2.8 z-score
TTAGAACTGTGGTATCGATTAGTGCTA: 0.627 z-score
TCAAATTTAGAAAATGGAACTGTGCTA: 0.152 z-score
GACGGTTTCGACACTGGGGAGGTGCTA: 3.69 z-score
TTCTATGACTACATTGCAGCGTGCTAG: 0.0351 z-score
TTAGGTTTCGGGTATCGGTCAGTGCTA: 6.81 z-score
GACTGTTTCCTTTCCCTGACGTGCTAG: 2.84 z-score
GACGATTCCAGTTTCGAGAAGTGCTAG: 2.65 z-score
CTGGGGGCAGTTTCATGGCCGTGCTAG: -0.541 z-score
GACGATTTCGGGTATCGAGCCGTGCTA: 0.45 z-score
TCATGTTTACATATGTTACTGTGCTAG: 0.654 z-score
GACGGTTTCGGTTCCGTGACGTGCTAG: 12.5 z-score
TTAGGTTTCGGGCATCGGTTAGTGCTA: 2.34 z-score
GACGGTATCGGGGATCGGGACGTGCTA: -0.506 z-score
GACGGTATCGGCATCGGGACGTGCTAG: -0.67 z-score
TCAGCTTTCTTTTTGCAACTGTGCTAG: 0.974 z-score
CACGATTTCAGTCTCGAGACGTGCTAG: 1.01 z-score
GACGGTATCCTTTTCCGGACGTGCTAG: 0.997 z-score
TTAGATATCGGGTATCGATGAGTGCTA: 0.0367 z-score

Single results of other studies
PhoQ, residues 284 288 289 292 302 303 AGCYAI  fold induction (PhoP, residues 12 14 15 18 19 SYFRT (Escherichia coli, UniProt P23836); Sort-seq, item: YFP reporter; E. coli; PhoQ-PhoP variant library, together with: 10 µM Mg2+; relative to: high Mg2+ state, higher = stronger signaling): 0.653

Repeated from above (block 1):
A10H: 0.815
F9Q: -0.103
P2W: 0.583
P13Y: 0.716
S12V: 1.05
L7Y: 0.515
R4H: -0.134
P2H: 0.851
P13W: -0.00645
A10L: 0.136
P1C: 0.192
